Results collected from several papers.
Every numbered part comes from another study and shows a few of its results, in no order. Changes are numbered by the printed parent chain.

Study 1 — technique: RNA Bind-n-Seq; form: RNA; matrix: in vitro; tested at: 365 nM; reference: no-protein control; direction: higher = stronger binding; endpoint: RBNS enrichment (R)
Target: RNA binding protein fox-1 homolog 2, RRM domain, GST-SBP tag (RBFOX2, Homo sapiens, UniProt O43251-10, residues 100-194)
Notes: natural RNA segment, single round, ends assumed
Constant ends, left off below: GGGAGUUCUACAGUCCGACGAUC … UGGAAUUCUCGGGUGCCAA
Residues (chain): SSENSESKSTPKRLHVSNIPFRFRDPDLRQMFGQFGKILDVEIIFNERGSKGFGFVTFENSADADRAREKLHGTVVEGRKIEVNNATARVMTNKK
UUGUUUUAGUCUUAUGGCAUGAUGAUAGCAUAUGUGUUCAGGUUUAUAGCUGUUGUGUUUAAAAAUUGAAAAAAGUGGAAAACAUCUUUGUACAUUUAAGUCUGUAUUAU: 2.47
UUUUUUAUCACUAAAAGUUGGACUCAUUGAUGGAGUCCUGUAGUAGUUUCAGUGUUAGAUACAGUUUUUUCCACCAUACAUCUGUGCAUUUUCUCUUUAGGUGACUGUUU: 3.28
CGGGGAGUUCCUGAAAGACUAGUUAGGGACAUUUGCUCAUCUCCUUCUGAGGCCAUCUGCAGAAAGUCCCCUGUGCCUUCUUUGGGAAGUCUCUUGUCAAUCCACAAGAA: 0.205
UCAGCCGUGUCUGCAUUGGAGCCUCACUGCAGUGUUCCUGGUGGCUCCUCUUAACUCCUGCUGCUGUCCAUGGGGUUUCCAGAGCCUUCACCUACAGCUCAGUGGGGUUU: 0.356
GUUUAUUUCUGUGGCCUGAGAAGGAAGGGACCUCCACGACAGGUGGGCUGGGUGCGAUCGCCGGCUGUUUGGCAUGUUCCCACCGGGAGUGCCGGGCAGGAGCAUGGGGU: 1.64
AGGUACAGACGACCUCGGGGCAGUGACGAGCAAAGACCAGAGACUGCUGAGCCCUCGCAUCUGGGUGGCGGAAUUGCCUGCGGGGUUUUGCCCUUGGUUUACUGAGGGGG: 3.19
GAGCCAGUCCCCACCUAGUCCCGUCCCUGCCACCUACACCCAAGGUCUUCAGCUUUAAGUUGCUGGGGCCAGGCCCCGAGGAGGGUUUACUGAGGGGUCUGUAGGUUUGA: 0.39
AAGGGAUGUCAGCUAGAGUGUAGAGCCAGGGAGAGACAGCCAGGGAUUCUCGCCUAGCUGAACCAAGAUGUAAAAUAGGAGAAAUGCUCCCUCCAUAGCCAAUCUGCAUC: 0.784

Study 2 — target: CCND2, cyclin fold, Cln2 fusion (human); technique: yeast growth competition, sequencing; matrix: yeast; notes: weak parent motif; reference: not given; direction: higher = stronger binding; endpoint: normalised enrichment score
Parent: RBL1 docking peptide (human); GSAKRRLFGEDPP; partner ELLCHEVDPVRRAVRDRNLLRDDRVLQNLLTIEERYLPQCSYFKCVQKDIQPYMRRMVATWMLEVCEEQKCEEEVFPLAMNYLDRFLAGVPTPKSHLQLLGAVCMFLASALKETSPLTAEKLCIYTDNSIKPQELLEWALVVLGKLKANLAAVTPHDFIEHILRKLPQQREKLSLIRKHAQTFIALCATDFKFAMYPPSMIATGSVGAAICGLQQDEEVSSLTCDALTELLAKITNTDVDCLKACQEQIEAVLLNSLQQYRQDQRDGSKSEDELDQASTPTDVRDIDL
K4S: 0.0504
P13L: 0.837
P12I: 0.32
E10C: 0.12
D11K: 0.0585
D11V: 0.407
G9S: 0.641
A3R: 0.279
R6M: -0.0352
E10G: -0.2
L7T: -0.203
R5N: 0.346
P12D: -0.0873
K4C: 0.099
K4P: -0.236
F8T: 0.171
R5M: 0.174
G1W: 0.342
R5A: -0.00475

Study 3 — technique: RNA Bind-n-Seq; form: RNA; matrix: in vitro; tested at: 1 µM; notes: whole 134-nt RNA, ends assumed; together with: 150 mM KCl; reference: input library; direction: higher = stronger binding; endpoint: log2 enrichment
Target: Ras GTPase-activating protein-binding protein 1, C-terminal RGG region (G3BP1, Homo sapiens, UniProt Q13283)
Sequence of UniProt Q13283 (whole entry, looked up): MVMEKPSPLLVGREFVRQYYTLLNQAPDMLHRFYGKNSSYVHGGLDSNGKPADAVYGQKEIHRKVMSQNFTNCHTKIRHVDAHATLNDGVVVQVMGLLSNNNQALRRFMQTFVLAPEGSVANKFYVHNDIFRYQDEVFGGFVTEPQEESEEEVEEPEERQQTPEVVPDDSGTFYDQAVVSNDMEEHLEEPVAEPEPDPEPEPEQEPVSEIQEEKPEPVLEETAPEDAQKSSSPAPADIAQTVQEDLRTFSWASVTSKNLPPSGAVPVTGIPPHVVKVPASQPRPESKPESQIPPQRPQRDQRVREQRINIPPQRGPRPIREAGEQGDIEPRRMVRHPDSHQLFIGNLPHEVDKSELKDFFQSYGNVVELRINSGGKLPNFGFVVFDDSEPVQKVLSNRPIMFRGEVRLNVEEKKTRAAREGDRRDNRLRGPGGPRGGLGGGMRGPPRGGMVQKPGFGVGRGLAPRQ
Constant ends, left off below: GGGAGUUCUACAGUCCGACGAUC … UGGAAUUCUCGGGUGUCAAGG
CACAGACAACACGCAACCACACAGACACAGAGGGAAGGGGUUGGGAUGGGGACAGGGUGCACAGCAGGGCGGGGUAGGACCCCAGCCCCU: -0.532
AAGUCCUGUGCUACACAUCGUAUGUACCGAAUCAAAUUUAAACCCCCAAACCCAAAAAAGUAUUAUGUUACGCCGUUCGGAUCUGCACUU: -0.963
AAGUCCUGUGCUACACAUCGUAUGUACCGAAUCGGGAGGGUUUUUUUGGGAAAGGGAAAGUAUUAUGUUACGCCGUUCGGAUCUGCACUU: -0.118
CCUGUGCUACACAUCGUAUGUACCGAAUCGGGUUUUUUUGGGUUUUUUUGGUUUUUUUGGAAAGUAUUAUGUUACGCCGUUCGGAUCUGC: -1.18
UCCUGUGCUACACAUCGUAUGUACCGAAUCGGGGUGGGGUUUUUUUGGGGUUUUUGGGGAAAGUAUUAUGUUACGCCGUUCGGAUCUGCA: 1.21
UUCAACAACUAGUACUGCUUCAAAUUAUCCAGAUGUGUUAACAAGGCCUUCUCUUCAUCGGAGCCAUCUGAAUUUUUCCAUGUUGGAAUC: 0.0782
CAGAACGAUCGAUACAGAAACCACGCUGCCGCCACCACACCAUCACCAUCGACAGAACAGUCCUUAAUCCAGAAACCUGAAAUGAAGGAA: 0.164
GUCCUGUGCUACACAUCGUAUGUACCGAAUCGGGGUGGGGUUUGGGGUUUUUUUGGGGAAAGUAUUAUGUUACGCCGUUCGGAUCUGCAC: 2.21
UGGCCCUGGUGGCAUGCGGGGAGGAAGAGGUGGCCUCAUGGAUCGUGGUGGGCCCGGUGGAAUGUUCAGAGGUGGCCGUGGUGGAGACAG: 0.178

Study 4 — technique: DHFR PCA, deep sequencing; matrix: yeast; together with: (+)-ABA 0.0091 µM; reference: wild-type fitted maximum; direction: higher = stronger binding; endpoint: relative binding score
Target: ABI1, truncated, D143A, DHFR fusion (Arabidopsis thaliana)
Notes: methotrexate growth selection, single substitutions
Parent: PYL1, truncated, DHFR fusion (Arabidopsis thaliana); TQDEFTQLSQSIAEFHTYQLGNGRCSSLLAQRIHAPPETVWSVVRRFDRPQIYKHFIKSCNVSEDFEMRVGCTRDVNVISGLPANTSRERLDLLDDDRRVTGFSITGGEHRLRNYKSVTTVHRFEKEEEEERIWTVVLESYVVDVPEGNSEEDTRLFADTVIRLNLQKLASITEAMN
H55P: 66.5%
S63V: 6.93%
H34K: 40.4%
S171I: 5.36%
I57M: -7.51%
H55C: 24.1%
R49K: 46.5%
D97G: 7.96%
K54Q: 7.48%
V76T: -4.71%
H34N: 51.5%
T73Y: 47.2%
G71T: -2.55%
T73Q: 13.1%
D48Q: -4.25%
